Measurements from different studies.
Every numbered part comes from another study and shows a few of its results, in no order. “And” joins repeats or separate records; there may be more than shown.
Sequence of UniProt O15264 (whole entry, looked up): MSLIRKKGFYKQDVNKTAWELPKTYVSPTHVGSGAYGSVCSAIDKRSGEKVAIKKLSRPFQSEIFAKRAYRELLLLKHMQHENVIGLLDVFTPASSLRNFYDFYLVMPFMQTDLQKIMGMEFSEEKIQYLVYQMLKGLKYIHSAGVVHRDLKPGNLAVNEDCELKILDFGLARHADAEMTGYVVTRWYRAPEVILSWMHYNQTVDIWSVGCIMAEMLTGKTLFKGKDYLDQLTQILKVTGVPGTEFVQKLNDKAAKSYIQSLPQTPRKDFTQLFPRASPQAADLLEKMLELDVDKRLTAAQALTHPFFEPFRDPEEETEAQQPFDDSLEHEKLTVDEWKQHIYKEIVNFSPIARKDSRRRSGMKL
Sequence of UniProt P53778 (whole entry, looked up): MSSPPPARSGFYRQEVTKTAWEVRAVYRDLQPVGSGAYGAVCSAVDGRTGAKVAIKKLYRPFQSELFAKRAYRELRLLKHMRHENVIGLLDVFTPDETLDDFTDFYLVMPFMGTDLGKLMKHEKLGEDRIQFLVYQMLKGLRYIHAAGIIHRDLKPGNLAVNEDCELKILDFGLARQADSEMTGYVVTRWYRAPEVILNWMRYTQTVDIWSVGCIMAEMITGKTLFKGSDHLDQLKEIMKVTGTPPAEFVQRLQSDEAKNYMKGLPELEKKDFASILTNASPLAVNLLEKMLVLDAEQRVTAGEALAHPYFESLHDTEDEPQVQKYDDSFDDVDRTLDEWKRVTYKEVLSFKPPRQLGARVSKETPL
Sequence of UniProt P00519 (whole entry, unmodified, looked up): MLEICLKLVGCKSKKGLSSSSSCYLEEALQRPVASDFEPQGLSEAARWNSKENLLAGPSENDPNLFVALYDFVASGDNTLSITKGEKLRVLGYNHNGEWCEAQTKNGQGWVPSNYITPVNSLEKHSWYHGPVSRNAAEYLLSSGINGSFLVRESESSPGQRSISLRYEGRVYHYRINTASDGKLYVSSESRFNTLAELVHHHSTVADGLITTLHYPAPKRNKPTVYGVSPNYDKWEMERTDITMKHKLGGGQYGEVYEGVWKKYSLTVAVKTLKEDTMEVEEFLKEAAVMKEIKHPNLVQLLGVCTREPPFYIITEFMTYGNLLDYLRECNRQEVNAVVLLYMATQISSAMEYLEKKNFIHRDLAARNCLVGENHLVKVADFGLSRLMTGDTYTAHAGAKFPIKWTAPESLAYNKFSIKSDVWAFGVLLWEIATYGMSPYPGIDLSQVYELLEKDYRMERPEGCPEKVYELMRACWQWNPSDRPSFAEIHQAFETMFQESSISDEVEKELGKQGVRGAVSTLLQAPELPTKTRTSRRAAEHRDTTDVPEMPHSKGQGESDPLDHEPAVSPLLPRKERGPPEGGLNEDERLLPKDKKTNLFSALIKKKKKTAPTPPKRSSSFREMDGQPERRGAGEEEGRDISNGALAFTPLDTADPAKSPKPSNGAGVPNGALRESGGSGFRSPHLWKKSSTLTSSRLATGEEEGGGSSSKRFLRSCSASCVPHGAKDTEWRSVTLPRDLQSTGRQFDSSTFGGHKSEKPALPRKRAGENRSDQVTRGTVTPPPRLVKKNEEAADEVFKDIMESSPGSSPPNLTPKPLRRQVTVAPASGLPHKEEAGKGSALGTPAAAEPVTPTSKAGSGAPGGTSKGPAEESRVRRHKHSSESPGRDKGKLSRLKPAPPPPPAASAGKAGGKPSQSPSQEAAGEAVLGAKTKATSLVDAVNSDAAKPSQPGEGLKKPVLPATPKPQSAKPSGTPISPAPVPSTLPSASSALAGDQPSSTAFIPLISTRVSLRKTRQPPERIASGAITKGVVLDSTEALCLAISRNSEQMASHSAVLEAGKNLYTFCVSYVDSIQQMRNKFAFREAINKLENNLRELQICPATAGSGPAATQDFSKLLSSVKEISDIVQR
Sequence of UniProt O15530 (whole entry, looked up): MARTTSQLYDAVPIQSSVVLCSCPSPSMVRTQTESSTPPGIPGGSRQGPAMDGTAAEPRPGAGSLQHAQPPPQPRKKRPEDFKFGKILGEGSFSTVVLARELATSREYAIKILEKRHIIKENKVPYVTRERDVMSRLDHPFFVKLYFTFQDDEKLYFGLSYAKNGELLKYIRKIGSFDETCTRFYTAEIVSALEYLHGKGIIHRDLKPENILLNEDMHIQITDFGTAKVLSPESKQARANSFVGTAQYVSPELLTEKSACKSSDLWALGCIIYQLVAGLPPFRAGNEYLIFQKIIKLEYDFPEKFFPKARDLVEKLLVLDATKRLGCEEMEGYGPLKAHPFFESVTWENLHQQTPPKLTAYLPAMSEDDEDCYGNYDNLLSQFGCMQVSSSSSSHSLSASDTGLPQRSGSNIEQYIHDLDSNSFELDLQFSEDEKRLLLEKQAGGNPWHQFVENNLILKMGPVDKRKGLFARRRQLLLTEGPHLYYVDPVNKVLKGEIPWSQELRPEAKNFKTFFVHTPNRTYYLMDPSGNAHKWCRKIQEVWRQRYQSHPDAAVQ
Sequence of UniProt O14757 (whole entry, looked up): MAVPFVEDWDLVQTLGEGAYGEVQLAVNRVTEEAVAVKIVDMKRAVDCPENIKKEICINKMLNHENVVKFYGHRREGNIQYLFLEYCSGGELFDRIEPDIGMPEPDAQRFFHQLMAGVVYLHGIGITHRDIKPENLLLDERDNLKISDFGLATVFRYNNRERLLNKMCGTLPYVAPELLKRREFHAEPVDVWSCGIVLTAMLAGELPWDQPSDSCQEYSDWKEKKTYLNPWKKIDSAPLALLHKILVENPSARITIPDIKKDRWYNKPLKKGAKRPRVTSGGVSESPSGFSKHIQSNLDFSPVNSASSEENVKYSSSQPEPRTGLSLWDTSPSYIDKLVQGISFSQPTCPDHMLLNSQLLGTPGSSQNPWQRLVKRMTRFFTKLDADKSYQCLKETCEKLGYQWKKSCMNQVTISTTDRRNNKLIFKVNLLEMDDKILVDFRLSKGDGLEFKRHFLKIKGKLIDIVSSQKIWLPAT
Sequence of UniProt P15735 (whole entry, looked up): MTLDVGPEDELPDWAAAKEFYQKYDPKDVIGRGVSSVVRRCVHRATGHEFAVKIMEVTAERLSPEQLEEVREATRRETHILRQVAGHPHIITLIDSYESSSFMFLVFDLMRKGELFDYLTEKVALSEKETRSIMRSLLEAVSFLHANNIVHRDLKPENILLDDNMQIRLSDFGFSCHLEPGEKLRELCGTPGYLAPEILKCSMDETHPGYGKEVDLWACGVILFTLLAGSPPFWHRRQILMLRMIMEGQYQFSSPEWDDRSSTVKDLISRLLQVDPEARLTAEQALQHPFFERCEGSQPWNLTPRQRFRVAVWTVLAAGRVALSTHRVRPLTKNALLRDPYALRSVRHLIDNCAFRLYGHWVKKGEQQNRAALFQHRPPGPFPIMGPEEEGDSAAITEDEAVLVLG
Sequence of UniProt P50750 (whole entry, looked up): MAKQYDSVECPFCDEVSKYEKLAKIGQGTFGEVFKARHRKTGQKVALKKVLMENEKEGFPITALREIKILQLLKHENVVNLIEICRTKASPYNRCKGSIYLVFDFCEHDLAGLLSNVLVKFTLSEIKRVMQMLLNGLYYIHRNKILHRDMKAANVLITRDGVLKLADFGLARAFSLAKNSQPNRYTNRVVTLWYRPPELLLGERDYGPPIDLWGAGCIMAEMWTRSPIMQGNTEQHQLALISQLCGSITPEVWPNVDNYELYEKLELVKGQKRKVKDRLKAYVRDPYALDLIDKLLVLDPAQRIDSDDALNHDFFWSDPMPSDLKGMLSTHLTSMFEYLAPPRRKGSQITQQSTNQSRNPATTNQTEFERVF
Sequence of UniProt Q9UL54 (whole entry, looked up): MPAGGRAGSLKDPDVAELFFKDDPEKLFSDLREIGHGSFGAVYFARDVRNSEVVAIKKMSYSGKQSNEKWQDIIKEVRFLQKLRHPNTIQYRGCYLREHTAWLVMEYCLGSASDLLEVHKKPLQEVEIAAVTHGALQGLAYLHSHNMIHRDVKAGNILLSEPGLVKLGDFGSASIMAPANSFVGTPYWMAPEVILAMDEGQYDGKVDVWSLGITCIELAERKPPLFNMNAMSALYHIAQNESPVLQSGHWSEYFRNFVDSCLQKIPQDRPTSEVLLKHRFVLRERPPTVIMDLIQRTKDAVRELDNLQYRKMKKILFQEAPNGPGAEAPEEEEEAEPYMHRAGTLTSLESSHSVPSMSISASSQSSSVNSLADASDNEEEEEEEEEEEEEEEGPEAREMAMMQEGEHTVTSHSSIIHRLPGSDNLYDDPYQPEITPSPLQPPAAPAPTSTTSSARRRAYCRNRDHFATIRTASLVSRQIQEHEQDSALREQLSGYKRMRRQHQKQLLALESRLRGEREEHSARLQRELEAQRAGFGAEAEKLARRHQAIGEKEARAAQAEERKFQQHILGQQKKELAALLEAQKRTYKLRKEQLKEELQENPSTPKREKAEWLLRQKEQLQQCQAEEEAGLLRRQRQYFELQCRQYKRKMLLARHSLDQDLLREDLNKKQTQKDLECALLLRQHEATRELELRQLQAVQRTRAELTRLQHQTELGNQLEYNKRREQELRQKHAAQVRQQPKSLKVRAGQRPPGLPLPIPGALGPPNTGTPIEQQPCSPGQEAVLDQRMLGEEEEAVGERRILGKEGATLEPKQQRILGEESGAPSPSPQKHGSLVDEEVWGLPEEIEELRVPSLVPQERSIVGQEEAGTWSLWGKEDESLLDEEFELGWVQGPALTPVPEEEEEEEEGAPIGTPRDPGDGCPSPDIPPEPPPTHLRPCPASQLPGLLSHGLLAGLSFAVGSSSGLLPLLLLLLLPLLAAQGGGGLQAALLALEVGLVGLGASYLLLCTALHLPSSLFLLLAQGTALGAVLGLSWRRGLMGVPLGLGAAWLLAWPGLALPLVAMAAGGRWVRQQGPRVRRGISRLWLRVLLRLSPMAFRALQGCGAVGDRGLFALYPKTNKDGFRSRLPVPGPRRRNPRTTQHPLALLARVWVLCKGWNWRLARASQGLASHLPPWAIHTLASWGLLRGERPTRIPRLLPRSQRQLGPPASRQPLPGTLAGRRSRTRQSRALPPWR

Series 1
Cell line: mouse MPNST tumor cells
Method: high-content nuclear imaging
Refers to: cell number
Concentration: 10 µM
Time: 12 h
Setting: mean of 2 replicates
Relative to: plate mean
Direction: higher = more cells
| SMILES | nuclei count |
| --- | --- |
| CC(C)NCC(O)c1cc(O)cc(O)c1 (stereo not shown) | 1.51 z-score |
| COC(=O)Nc1nc2cc([S+]([O-])c3ccccc3)ccc2[nH]1 (stereo not shown) | 0.569 z-score |
| CCOc1cc(N2CCC(O)CC2)ccc1Nc1ncc2c(n1)N(C)c1ccccc1C(=O)N2C | -2.12 z-score |
| CNCCC(Oc1ccc(C(F)(F)F)cc1)c1ccccc1 (stereo not shown) | -4.6 z-score |
| COc1cc2nc(N3CCN(C(=O)C4COc5ccccc5O4)CC3)nc(N)c2cc1OC (stereo not shown) | -0.79 z-score and -4.05 z-score |
| COc1ccc(C[C@@H]2c3cc(OC)c(OC)cc3CC[N@+]2(C)CCC(=O)OCCCCCOC(=O)CC[N@@+]2(C)CCc3cc(OC)c(OC)cc3[C@H]2Cc2ccc(OC)c(OC)c2)cc1OC | -1.39 z-score and -1.01 z-score |
| CN=c1nc(-c2ccccc2)n(-c2ccccc2)s1 | -0.333 z-score |
| Nc1cc(F)ccc1NC(=O)/C=C/c1cnn(C/C=C/c2ccccc2)c1 | -0.902 z-score |
| COC(=O)C(N)Cc1ccc(Cl)cc1 (stereo not shown) | 1.51 z-score |
| COCCOCOc1cc2ccc(-c3ccc(C(=O)O)cc3)cc2cc1C12CC3CC(CC(C3)C1)C2 | 0.306 z-score |
| O=C(Nc1nc2cc(C(F)(F)F)cc(NC3CC3)n2n1)c1cccnc1 | -4.53 z-score |
| Cc1ccc(-c2cnccc2-c2cnc(Nc3ccc(O)cc3)s2)c(Cl)c1 | -4.48 z-score |
| CC(C)CNc1nc(-c2cccc3ncccc23)cn2c(-c3ccc(C(=O)NC4CC4)cc3)cnc12 | -3.86 z-score |
| O=C(O)c1ccccc1C(=O)Nc1ccc(S(=O)(=O)Nc2nccs2)cc1 | 0.494 z-score |

Series 2
Species: mouse
Sample: microsomes or S9
Concentration: 2 µM
Time: 0.5 h
| Structure (SMILES) | remaining compound [%] |
| --- | --- |
| CC(C)(C)c1nnc2ccc(N3CCCc4occc4C3)nn12 | 4.41 |
| CC1CN(Cc2cncs2)CCN1CC(C)(C)O (stereo not shown) | 32.7 |
| COc1ccc(CCN[C@H]2CS(=O)(=O)C[C@@H]2S(=O)(=O)c2ccc(F)c(C)c2)cc1OC | 4.83 |
| COc1nc(Nc2ccc3[nH]ncc3c2)c(Cl)c(OC)n1 | 0.139 |
| COC(=O)C1(C(=O)OC)C[C@@H](c2ccccc2)c2ccc(N(C)C)cc2[C@@H]1CC(=O)C(C)(C)C | 0.0827 |
| CC(=O)Nc1ccc(S(=O)(=O)N[C@H](C(=O)O)C2CCCCC2)cc1 | > 100 |
| CNC(=O)CCC(=O)C1=C(NC)CC(C)(C)CC1=O | 99.5 |
| COc1ccc(Cn2c(-c3c(C)n[nH]c3-c3ccccc3)nc3ccccc32)cc1 | 1.52 |
| Cc1ccc(S(=O)(=O)c2cn(CC3CCCO3)c(=O)n(-c3ccccc3)c2=O)cc1 (stereo not shown) | 5.3 |

Series 3
Structure (SMILES): O=C(c1ccccc1)c1ccc(N2CCOCC2)cc1O
Observed: enzyme activity
Mode: inhibitor
Concentration: 0.5 µM
Relative to: control
| target | remaining activity |
| --- | --- |
| MAP kinase-interacting serine/threonine-protein kinase 2 (MKNK2, Homo sapiens, UniProt Q9HBH9) | 90.6% |
| Protein kinase C iota type (PRKCI, Homo sapiens, UniProt P41743) | 98.3% |
| Tyrosine-protein kinase BTK (BTK, Homo sapiens, UniProt Q06187) | 103% |
| Casein kinase I isoform alpha (CSNK1A1, Homo sapiens, UniProt P48729) | 110% |
| RAC-gamma serine/threonine-protein kinase (AKT3, Homo sapiens, UniProt Q9Y243) | 105% |
| Mitogen-activated protein kinase kinase kinase kinase 2 (MAP4K2, Homo sapiens, UniProt Q12851) | 116% |
| Serine/threonine-protein kinase PLK2 (PLK2, Homo sapiens, UniProt Q9NYY3) | 111% |
| Serine/threonine-protein kinase Nek4 (NEK4, Homo sapiens, UniProt P51957) | 97.7% |
| Mitogen-activated protein kinase 12 (MAPK12, Homo sapiens, UniProt P53778) | 100% |
| Serine/threonine-protein kinase WNK2 (WNK2, Homo sapiens, UniProt Q9Y3S1) | 100% |
| Ephrin type-A receptor 5 (EPHA5, Homo sapiens, UniProt P54756) | 112% |
| Mitogen-activated protein kinase 13 (MAPK13, Homo sapiens, UniProt O15264) | 106% |
| cGMP-dependent protein kinase 1 (PRKG1, Homo sapiens, UniProt Q13976) | 96.4% |
| Serine/threonine-protein kinase Chk1 (CHEK1, Homo sapiens, UniProt O14757) | 108% |
| Mast/stem cell growth factor receptor Kit (KIT, Homo sapiens, UniProt P10721) | 96.2% |
| Mitogen-activated protein kinase kinase kinase 10 (MAP3K10, Homo sapiens, UniProt Q02779) | 100% |
| Leucine-rich repeat serine/threonine-protein kinase 2 (LRRK2, Homo sapiens, UniProt Q5S007) | 95.4% |
| Protein kinase C delta type (PRKCD, Homo sapiens, UniProt Q05655) | 98.8% |
| Casein kinase II subunit alpha (CSNK2A1, Homo sapiens, UniProt P68400) | 91.1% |
| Cyclin-dependent kinase 9, with cyclin T1 (CDK9, Homo sapiens, UniProt P50750) | 97.9% |
| Interleukin-1 receptor-associated kinase 4 (IRAK4, Homo sapiens, UniProt Q9NWZ3) | 108% |
| Tyrosine-protein kinase Lyn (LYN, Homo sapiens, UniProt P07948) | 105% |
| Dual specificity mitogen-activated protein kinase kinase 6 (MAP2K6, Homo sapiens, UniProt P52564) | 93.5% |

Series 4
Structure (SMILES): COc1ccc2c(O[C@@H]3C[C@H]4C(=O)N[C@]5(C(=O)O)CC5/C=C\CCCCC[C@H](NC(=O)OC5CCCC5)C(=O)N4C3)cc(-c3csc(NC(=O)C(C)C)n3)nc2c1C (stereo partly shown)
Concentration: 1 µM
| target | observed | method | setting | relative to | remaining binding [%] |
| --- | --- | --- | --- | --- | --- |
| 3-phosphoinositide-dependent protein kinase 1 (PDPK1, Homo sapiens, UniProt O15530) | cell-free assay | competition with immobilised ligand |  |  | 99 |
| Mitogen-activated protein kinase 13 (MAPK13, Homo sapiens, UniProt O15264) | cell-free assay | competition with immobilised ligand |  |  | 100 |
| Mitogen-activated protein kinase kinase kinase kinase 4 (MAP4K4, Homo sapiens, UniProt O95819) | cell-free assay | competition with immobilised ligand |  |  | 100 |
| AP2-associated protein kinase 1 (AAK1, Homo sapiens, UniProt Q2M2I8) |  | KINOMEscan |  | control | 100 |
| Ribosomal protein S6 kinase alpha-1, C-terminal kinase domain (RPS6KA1, Homo sapiens, UniProt Q15418) | cell-free assay | competition with immobilised ligand |  |  | 100 |
| Phosphorylase b kinase gamma catalytic chain, liver/testis isoform (PHKG2, Homo sapiens, UniProt P15735) | cell-free assay | competition with immobilised ligand |  |  | 100 |
| Tyrosine-protein kinase ABL1, phosphorylated (ABL1, Homo sapiens, UniProt P00519, F317I) | cell-free assay | competition with immobilised ligand |  |  | 76 |
| Phosphatidylinositol 4,5-bisphosphate 3-kinase catalytic subunit gamma isoform (PIK3CG, Homo sapiens, UniProt P48736) | cell-free assay | competition with immobilised ligand |  |  | 65 |
| Serine/threonine-protein kinase TBK1 (TBK1, Homo sapiens, UniProt Q9UHD2) | cell-free assay | competition with immobilised ligand |  |  | 86 |
| Serine/threonine-protein kinase RIO2 (RIOK2, Homo sapiens, UniProt Q9BVS4) | cell-free assay | competition with immobilised ligand |  |  | 100 |
| Tyrosine-protein kinase receptor Tie-1 (TIE1, Homo sapiens, UniProt P35590) | cell-free assay | competition with immobilised ligand |  |  | 100 |
| Tyrosine-protein kinase ABL1 (ABL1, Homo sapiens, UniProt P00519, F317I) |  | KINOMEscan | F317I mutant, nonphosphorylated | control | 90 |
| Mitogen-activated protein kinase 12 (MAPK12, Homo sapiens, UniProt P53778) | cell-free assay | competition with immobilised ligand |  |  | 91 |
| Interleukin-1 receptor-associated kinase 1 (IRAK1, Homo sapiens, UniProt P51617) | cell-free assay | competition with immobilised ligand |  |  | 69 |
| Serine/threonine-protein kinase TAO2 (TAOK2, Homo sapiens, UniProt Q9UL54) | cell-free assay | competition with immobilised ligand |  |  | 98 |
| Ephrin type-A receptor 6 (EPHA6, Homo sapiens, UniProt Q9UF33) | cell-free assay | competition with immobilised ligand |  |  | 100 |
| 5'-AMP-activated protein kinase catalytic subunit alpha-2 (PRKAA2, Homo sapiens, UniProt P54646) | cell-free assay | competition with immobilised ligand |  |  | 87 |
| Phosphatidylinositol 4,5-bisphosphate 3-kinase catalytic subunit alpha isoform (PIK3CA, Homo sapiens, UniProt P42336) | cell-free assay | competition with immobilised ligand |  |  | 75 |

For quick reference, copied from above (series 2):
| Structure (SMILES) | remaining compound [%] |
| --- | --- |
| CC(C)(C)c1nnc2ccc(N3CCCc4occc4C3)nn12 | 4.41 |
| CC1CN(Cc2cncs2)CCN1CC(C)(C)O (stereo not shown) | 32.7 |
| COc1ccc(CCN[C@H]2CS(=O)(=O)C[C@@H]2S(=O)(=O)c2ccc(F)c(C)c2)cc1OC | 4.83 |
| COc1nc(Nc2ccc3[nH]ncc3c2)c(Cl)c(OC)n1 | 0.139 |
| COC(=O)C1(C(=O)OC)C[C@@H](c2ccccc2)c2ccc(N(C)C)cc2[C@@H]1CC(=O)C(C)(C)C | 0.0827 |
| CC(=O)Nc1ccc(S(=O)(=O)N[C@H](C(=O)O)C2CCCCC2)cc1 | > 100 |
| CNC(=O)CCC(=O)C1=C(NC)CC(C)(C)CC1=O | 99.5 |
| COc1ccc(Cn2c(-c3c(C)n[nH]c3-c3ccccc3)nc3ccccc32)cc1 | 1.52 |
| Cc1ccc(S(=O)(=O)c2cn(CC3CCCO3)c(=O)n(-c3ccccc3)c2=O)cc1 (stereo not shown) | 5.3 |
